# Results from different studies.
# Numbered parts are unrelated; each lists some results of a single study. “And” joins repeats or separate records; there may be more than shown.
# UniProt P51812, sequence (whole entry, looked up): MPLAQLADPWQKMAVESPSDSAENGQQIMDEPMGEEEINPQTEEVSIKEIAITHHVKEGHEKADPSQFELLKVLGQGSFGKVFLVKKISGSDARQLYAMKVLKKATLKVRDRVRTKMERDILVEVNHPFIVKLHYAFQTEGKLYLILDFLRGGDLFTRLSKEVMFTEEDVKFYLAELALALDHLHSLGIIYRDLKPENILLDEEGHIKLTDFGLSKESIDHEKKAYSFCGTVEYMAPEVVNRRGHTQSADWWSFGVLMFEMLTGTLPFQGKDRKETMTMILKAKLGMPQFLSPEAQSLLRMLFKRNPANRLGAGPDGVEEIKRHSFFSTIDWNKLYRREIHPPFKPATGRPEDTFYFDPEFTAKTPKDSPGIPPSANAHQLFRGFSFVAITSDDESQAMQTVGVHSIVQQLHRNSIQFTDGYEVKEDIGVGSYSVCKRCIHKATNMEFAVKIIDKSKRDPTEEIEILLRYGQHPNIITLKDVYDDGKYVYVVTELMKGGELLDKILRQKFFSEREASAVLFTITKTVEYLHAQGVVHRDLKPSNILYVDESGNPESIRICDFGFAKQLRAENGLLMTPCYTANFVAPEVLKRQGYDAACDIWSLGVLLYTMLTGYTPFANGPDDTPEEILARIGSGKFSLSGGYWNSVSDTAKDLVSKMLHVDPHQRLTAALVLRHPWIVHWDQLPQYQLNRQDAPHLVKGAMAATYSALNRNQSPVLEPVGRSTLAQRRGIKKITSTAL
# UniProt Q9Y3S1, sequence (whole entry, looked up): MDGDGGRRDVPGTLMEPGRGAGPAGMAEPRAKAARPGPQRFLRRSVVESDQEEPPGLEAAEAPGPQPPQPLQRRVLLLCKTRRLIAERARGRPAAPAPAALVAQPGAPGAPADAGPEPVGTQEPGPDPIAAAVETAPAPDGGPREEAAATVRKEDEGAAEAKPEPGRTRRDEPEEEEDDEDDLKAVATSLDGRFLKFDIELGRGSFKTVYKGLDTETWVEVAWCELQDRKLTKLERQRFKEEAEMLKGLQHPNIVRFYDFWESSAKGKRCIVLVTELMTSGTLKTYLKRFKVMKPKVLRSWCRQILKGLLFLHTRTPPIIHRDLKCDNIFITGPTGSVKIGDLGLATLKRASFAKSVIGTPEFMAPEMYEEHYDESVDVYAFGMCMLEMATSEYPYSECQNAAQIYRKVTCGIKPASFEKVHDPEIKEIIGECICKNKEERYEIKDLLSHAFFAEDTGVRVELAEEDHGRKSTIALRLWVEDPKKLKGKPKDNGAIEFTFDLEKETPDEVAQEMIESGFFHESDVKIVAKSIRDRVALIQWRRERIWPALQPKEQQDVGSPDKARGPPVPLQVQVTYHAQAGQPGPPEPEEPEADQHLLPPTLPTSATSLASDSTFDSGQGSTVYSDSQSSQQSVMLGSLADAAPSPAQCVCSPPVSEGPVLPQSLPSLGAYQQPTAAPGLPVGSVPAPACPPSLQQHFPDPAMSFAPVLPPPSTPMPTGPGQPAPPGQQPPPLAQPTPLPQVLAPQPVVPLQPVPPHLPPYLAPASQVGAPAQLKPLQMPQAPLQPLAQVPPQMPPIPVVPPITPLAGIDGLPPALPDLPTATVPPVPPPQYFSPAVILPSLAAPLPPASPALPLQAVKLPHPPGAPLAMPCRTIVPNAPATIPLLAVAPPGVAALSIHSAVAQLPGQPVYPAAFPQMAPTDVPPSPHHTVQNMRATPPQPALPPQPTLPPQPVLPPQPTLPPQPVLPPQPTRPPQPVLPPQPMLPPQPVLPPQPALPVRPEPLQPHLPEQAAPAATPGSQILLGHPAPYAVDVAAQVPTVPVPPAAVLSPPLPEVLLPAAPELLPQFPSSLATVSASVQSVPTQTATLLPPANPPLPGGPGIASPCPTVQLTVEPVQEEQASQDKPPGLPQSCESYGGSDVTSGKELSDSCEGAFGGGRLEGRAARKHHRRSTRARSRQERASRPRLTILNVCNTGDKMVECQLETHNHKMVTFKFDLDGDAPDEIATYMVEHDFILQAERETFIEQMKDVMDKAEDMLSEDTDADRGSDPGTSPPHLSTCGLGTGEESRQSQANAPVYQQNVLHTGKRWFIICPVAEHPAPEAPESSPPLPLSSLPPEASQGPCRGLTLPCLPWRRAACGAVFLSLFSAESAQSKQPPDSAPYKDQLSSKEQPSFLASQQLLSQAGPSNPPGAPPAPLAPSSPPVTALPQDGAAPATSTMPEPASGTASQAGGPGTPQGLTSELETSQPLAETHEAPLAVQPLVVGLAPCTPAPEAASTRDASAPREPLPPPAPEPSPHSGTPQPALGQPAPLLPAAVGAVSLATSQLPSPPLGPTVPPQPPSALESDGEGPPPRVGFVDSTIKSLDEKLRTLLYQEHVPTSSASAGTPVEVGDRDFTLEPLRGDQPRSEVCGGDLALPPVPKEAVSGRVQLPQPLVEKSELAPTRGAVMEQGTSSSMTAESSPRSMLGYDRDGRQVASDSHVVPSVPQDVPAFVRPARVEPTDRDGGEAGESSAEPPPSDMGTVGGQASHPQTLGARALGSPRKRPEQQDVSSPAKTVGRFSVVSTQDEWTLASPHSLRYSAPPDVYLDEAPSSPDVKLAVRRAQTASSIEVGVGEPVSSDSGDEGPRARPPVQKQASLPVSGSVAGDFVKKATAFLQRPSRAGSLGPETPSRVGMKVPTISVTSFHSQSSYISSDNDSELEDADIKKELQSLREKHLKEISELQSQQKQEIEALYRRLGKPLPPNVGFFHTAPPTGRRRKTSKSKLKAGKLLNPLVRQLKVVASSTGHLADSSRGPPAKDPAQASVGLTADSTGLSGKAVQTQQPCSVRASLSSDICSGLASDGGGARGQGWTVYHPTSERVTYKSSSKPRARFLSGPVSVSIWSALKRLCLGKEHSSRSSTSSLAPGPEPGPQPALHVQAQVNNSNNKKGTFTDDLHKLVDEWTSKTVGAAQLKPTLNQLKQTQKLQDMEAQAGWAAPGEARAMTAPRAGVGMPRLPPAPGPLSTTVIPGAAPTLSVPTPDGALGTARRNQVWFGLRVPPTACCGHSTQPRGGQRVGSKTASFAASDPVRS
# UniProt Q96BR1, sequence (whole entry, looked up): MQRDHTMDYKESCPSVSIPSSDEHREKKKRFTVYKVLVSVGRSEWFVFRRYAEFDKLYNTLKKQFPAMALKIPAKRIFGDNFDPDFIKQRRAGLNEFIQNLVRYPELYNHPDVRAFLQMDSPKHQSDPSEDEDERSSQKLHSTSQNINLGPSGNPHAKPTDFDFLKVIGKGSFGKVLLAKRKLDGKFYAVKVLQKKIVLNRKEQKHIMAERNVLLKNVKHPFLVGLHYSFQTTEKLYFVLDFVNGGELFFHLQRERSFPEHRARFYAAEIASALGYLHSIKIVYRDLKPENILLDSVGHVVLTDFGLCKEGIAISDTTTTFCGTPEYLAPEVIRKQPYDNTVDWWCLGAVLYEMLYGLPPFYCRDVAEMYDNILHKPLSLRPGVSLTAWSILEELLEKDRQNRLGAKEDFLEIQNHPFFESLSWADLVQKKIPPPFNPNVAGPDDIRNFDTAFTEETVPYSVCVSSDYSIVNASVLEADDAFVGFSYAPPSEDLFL

# Block 1 — effect on: thermal unfolding; method: differential scanning fluorimetry; concentration: 5.5 µM; reading: higher = more unfolded
# SMILES: C[C@@H]1CN(c2ccc(-c3cc(C(=O)NCCOCCOCCOCCOCCNC(=O)Cn4cc(-c5[nH]cc(C(=O)N[C@@H](CC(N)=O)c6ccc(F)c(Cl)c6)c5-c5ccc(Cl)cc5F)cn4)ccc3F)cc2NC(=O)c2c[nH]c(=O)cc2C(F)(F)F)C[C@H](C)N1C
# DCAF1: DDB1- and CUL4-associated factor 1 (DCAF1, Homo sapiens, UniProt Q9Y4B6)
# UniProt Q9Y4B6, sequence (whole entry, looked up): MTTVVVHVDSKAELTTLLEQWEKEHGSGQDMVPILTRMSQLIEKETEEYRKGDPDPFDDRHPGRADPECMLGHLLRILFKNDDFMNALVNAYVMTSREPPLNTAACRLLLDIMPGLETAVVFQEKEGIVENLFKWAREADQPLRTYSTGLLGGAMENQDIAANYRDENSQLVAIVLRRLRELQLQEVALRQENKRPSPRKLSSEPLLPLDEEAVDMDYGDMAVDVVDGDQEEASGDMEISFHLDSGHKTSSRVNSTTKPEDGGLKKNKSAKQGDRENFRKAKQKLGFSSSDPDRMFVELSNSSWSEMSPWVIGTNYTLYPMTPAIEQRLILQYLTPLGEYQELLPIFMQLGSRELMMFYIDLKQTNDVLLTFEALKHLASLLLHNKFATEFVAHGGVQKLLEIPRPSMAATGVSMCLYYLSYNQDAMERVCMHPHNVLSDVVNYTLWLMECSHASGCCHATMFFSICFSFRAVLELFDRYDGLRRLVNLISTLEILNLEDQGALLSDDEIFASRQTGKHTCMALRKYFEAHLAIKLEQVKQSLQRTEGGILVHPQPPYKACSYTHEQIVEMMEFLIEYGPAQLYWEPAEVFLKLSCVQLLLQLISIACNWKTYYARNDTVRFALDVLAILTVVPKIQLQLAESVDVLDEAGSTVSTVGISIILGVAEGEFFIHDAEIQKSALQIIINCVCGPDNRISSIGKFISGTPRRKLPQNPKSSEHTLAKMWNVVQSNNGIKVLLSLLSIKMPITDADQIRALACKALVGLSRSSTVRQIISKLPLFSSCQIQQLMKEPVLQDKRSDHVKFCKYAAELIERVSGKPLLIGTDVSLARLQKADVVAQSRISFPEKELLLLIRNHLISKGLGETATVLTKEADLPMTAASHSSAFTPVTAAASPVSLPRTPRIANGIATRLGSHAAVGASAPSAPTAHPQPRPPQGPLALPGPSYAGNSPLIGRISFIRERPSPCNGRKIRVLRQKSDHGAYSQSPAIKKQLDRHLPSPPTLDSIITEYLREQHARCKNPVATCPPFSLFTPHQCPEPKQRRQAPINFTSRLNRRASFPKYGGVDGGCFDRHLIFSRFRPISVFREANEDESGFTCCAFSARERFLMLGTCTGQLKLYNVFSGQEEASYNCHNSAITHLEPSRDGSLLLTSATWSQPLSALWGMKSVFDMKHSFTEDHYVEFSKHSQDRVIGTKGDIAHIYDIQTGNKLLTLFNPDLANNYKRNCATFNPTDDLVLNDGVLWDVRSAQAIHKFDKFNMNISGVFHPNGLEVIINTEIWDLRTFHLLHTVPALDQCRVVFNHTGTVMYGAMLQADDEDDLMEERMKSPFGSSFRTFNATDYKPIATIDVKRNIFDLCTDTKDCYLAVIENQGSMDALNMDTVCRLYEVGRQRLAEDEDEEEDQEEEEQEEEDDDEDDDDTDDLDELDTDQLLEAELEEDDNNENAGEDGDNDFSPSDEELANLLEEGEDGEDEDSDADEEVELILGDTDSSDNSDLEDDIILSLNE
# WDR5: WD repeat-containing protein 5 (WDR5, Homo sapiens, UniProt P61964)
target,temperature,SYPRO Orange fluorescence
DCAF1,84.41 °C,40400 a.u.
WDR5,31.8 °C,14600 a.u.
WDR5,64.41 °C,7950 a.u.
DCAF1,88.81 °C,36300 a.u.
WDR5,30.8 °C,15000 a.u.
WDR5,93.61 °C,39600 a.u.
DCAF1,70.21 °C,54200 a.u.

# Block 2 — concentration: 1 µM
# SMILES: CC[C@@]1(c2cccc(-c3c(F)cncc3OC)c2)C2=C(Nc3n[nH]cc31)[C@H](F)C(C)(C)CC2=O (single isomer, unassigned)
target,effect on,method,baseline,remaining binding [%]
"G protein-coupled receptor kinase 4 (GRK4, Homo sapiens, UniProt P32298)",kinase binding,KINOMEscan,DMSO control,83
"Platelet-derived growth factor receptor alpha (PDGFRA, Homo sapiens, UniProt P16234)",kinase binding,KINOMEscan,DMSO control,79
"G protein-coupled receptor kinase 3 (GRK3, Homo sapiens, UniProt P35626)",binding,competition with immobilised ligand,,100
"cGMP-dependent protein kinase 2 (PRKG2, Homo sapiens, UniProt Q13237)",binding,competition with immobilised ligand,,85
"Serine/threonine-protein kinase WNK2 (WNK2, Homo sapiens, UniProt Q9Y3S1)",kinase binding,KINOMEscan,DMSO control,73
"Ribosomal protein S6 kinase alpha-3, C-terminal kinase domain (RPS6KA3, Homo sapiens, UniProt P51812)",binding,competition with immobilised ligand,,68
"RAF proto-oncogene serine/threonine-protein kinase (RAF1, Homo sapiens, UniProt P04049)",binding,competition with immobilised ligand,,89
"Serine/threonine-protein kinase SIK3 (SIK3, Homo sapiens, UniProt Q9Y2K2)",kinase binding,KINOMEscan,DMSO control,57
"Serine/threonine-protein kinase Sgk3 (SGK3, Homo sapiens, UniProt Q96BR1)",binding,competition with immobilised ligand,,68
"Dual specificity protein kinase TTK (TTK, Homo sapiens, UniProt P33981)",kinase binding,KINOMEscan,DMSO control,80
"Serine/threonine-protein kinase tousled-like 1 (TLK1, Homo sapiens, UniProt Q9UKI8)",binding,competition with immobilised ligand,,100
"Ribosomal protein S6 kinase alpha-4, N-terminal kinase domain (RPS6KA4, Homo sapiens, UniProt O75676)",kinase binding,KINOMEscan,DMSO control,78

# Block 3
# SMILES: Cc1ncsc1-c1ccc(C(CO)NC(=O)C2CC(O)CN2C(=O)C(C(C)C)n2cc(-c3ccc(COc4c(-c5c(C)c(F)cc6[nH]ncc56)c(C5CC5)cc5c(N6CC7CC6CN7)nc(OC6CCOCC6)nc45)cc3)nn2)cc1 (stereo not shown)
host,route,dose,time,body weight
"mouse, HT-29 xenograft",sc,30 mg/kg once daily,day 10,21 g and 19.4 g and 20.7 g and 18.4 g and 17 g
"mouse, PK-59 xenograft",,10 mg/kg,day 21,28.5 g and 24.3 g and 25.6 g and 26.1 g and 25.2 g
"mouse, GP2d xenograft",,30 mg/kg once weekly,day 0,23.3 g
"mouse, A-375 xenograft",sc,30 mg/kg once daily,day 10,18.1 g and 18.5 g and 20.4 g and 19.1 g and 18.9 g
"mouse, PK-59 xenograft",,0.3 mg/kg,day 10,25.4 g and 24.9 g and 25.2 g
"mouse, PK-59 xenograft",,30 mg/kg,day 0,25.2 g and 23.4 g and 21.9 g and 24.8 g and 24.4 g
"mouse, PK-59 xenograft",subcutaneous,30 mg/kg once daily,day 20,19.9 g and 18.8 g and 19.4 g and 20 g and 18 g

# Block 4 — Compound: Cc1nc(C)c(C=[N+]([O-])C(C)(C)C)nc1C; method: footprint test
# Host: MPTP-induced Parkinson's disease mouse model
dose,setting,corridor crossing time
10 mg/kg,mean of three trials,4.98 s and 6.06 s and 5.6 s and 5.52 s and 6.26 s and 6.07 s and 6.37 s and 3.97 s
30 mg/kg,trial 1,5.53 s and 5.09 s and 4.22 s and 6.14 s and 5.96 s and 6.35 s and 7.14 s and 5.12 s
10 mg/kg,trial 2,4.21 s and 7.01 s and 3.96 s and 6.91 s and 6.39 s and 5.29 s and 6.31 s and 7.22 s
90 mg/kg,mean of three trials,5.49 s and 5.15 s and 6.41 s and 5.31 s and 5.16 s and 7.41 s and 6.6 s and 7.14 s
90 mg/kg,trial 2,5.13 s and 4.69 s and 6.62 s and 6.03 s and 5.73 s and 5.87 s and 6.13 s and 7.1 s
90 mg/kg,trial 3,4.34 s and 6.22 s and 5.43 s and 2.86 s and 5 s and 6.36 s and 7.87 s and 5.18 s
30 mg/kg,trial 2,8.22 s and 6.22 s and 4.51 s and 5.08 s and 7.24 s and 5.33 s and 5.87 s and 5.94 s
30 mg/kg,,5.93 s and 4.94 s and 7.2 s and 5.01 s and 6.61 s and 5.74 s and 5.1 s and 5.78 s

# Some of these lines once more (block 2):
target,effect on,method,baseline,remaining binding [%]
"G protein-coupled receptor kinase 4 (GRK4, Homo sapiens, UniProt P32298)",kinase binding,KINOMEscan,DMSO control,83
"Platelet-derived growth factor receptor alpha (PDGFRA, Homo sapiens, UniProt P16234)",kinase binding,KINOMEscan,DMSO control,79
"G protein-coupled receptor kinase 3 (GRK3, Homo sapiens, UniProt P35626)",binding,competition with immobilised ligand,,100
"cGMP-dependent protein kinase 2 (PRKG2, Homo sapiens, UniProt Q13237)",binding,competition with immobilised ligand,,85
